Measured values pooled from the literature.
A part holds a random share of what one study measured.

Set 1 — technique: protein binding microarray; molecule type: double-stranded DNA, one strand shown; medium: in vitro; concentration: not given; relative to: not given; direction: higher = stronger binding
Target: Histone acetyltransferase KAT6A, both winged helices, GST fusion (KAT6A, Homo sapiens, UniProt Q92794, residues 1-181)
Notes: 8-mer, flanks averaged, mean of 2 arrays, mostly near background
Construct (chain): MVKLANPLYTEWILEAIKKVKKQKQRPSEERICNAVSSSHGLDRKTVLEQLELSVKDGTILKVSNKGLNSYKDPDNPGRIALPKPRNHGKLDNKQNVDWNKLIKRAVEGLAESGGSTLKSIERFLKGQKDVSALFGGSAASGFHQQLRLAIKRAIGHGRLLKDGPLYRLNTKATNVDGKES
| Oligonucleotide | E-score |
| --- | --- |
| CGGACTGC | 0.14 |
| AACGGTGT | 0.0632 |
| AGCGTGAA | 0.0355 |
| CCCCGCAC | 0.203 |
| TACTACGA | -0.129 |
| ACCAAGAA | -0.158 |
| AACTTATG | -0.187 |
| TACGAGGA | -0.0609 |
| AATTAATG | -0.036 |
| AAACACGG | 0.219 |
| ACGTTTGA | -0.0725 |
| AAAACTTC | -0.0172 |
| ACCGCGGG | 0.371 |
| CTAGTAAA | 0.061 |
| ATACGAGG | -0.0655 |
| GATGCGTA | 0.0285 |
| CATGCTCC | -0.0452 |
| GATGATAC | -0.0107 |
| GCAGAACA | 0.00543 |
| ACGAAAAA | -0.0953 |
| CGCTTTAG | 0.126 |
| AGTAAAAA | -0.124 |

Set 2 — technique: protein-binding microarray; molecule type: double-stranded DNA, one strand shown; medium: in vitro; concentration: 250 nM; notes: 60-bp whole probe; together with: salmon DNA 0.4 mg/ml; relative to: random background probes; direction: higher = stronger binding; all sequences stand within: GCCTAGCAC … GTCTTGATTCGCTTGACGCTGCTG
Target: Interferon regulatory factor 7, full length, phosphomimetic (IRF7, Homo sapiens, UniProt Q92985, residues 1-503, S101K/S471D/S472D/S475D/S476D/S477D/S483D/S484D/S487D)
Residues (chain): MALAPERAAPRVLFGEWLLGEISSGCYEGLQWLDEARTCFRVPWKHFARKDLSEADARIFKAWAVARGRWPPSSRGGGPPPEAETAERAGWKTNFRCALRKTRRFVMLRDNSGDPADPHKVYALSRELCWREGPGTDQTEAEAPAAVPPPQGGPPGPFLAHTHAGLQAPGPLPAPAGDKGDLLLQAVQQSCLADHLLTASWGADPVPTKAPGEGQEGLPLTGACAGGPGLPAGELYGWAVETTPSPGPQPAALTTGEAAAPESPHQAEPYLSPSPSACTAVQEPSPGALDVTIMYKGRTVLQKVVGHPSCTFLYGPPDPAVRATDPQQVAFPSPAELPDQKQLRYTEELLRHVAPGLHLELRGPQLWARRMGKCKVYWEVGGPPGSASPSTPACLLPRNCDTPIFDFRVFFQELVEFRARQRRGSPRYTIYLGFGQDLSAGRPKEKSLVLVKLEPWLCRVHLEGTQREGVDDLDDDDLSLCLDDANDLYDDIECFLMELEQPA
| Oligonucleotide | log fluorescence [z-score] |
| --- | --- |
| GACGGTTTCGGTTCCTGGACGTGCTAG | 12.3 |
| TCAGACTTTGGTTTGTAACTGTGCTAG | 0.0599 |
| TCACCACTTTCTTTTGCACTGTGCTAG | 0.738 |
| GACGGTTTCCTACTGCTGATGTGCTAG | 1.46 |
| TTCTATGTCTGTTTTTGCTTGTGCTAG | 0.419 |
| ATGAGACTGTCACATCCCTGGTGCTAG | -0.303 |
| GACGGACAGGGGTATCGGGACGTGCTA | -0.684 |
| TCACATCTGCAACATCTAACTGTGCTA | 0.128 |
| GTGATTTCAGTTTTCTTTTCGTGCTAG | 3.11 |
| GACGGACTGCTACAGCTGACGTGCTAG | -0.815 |
| TTAGGTTTCGGTTACGGTTAGTGCTAG | 9.77 |
| GACTATTCCAGTTTCGAGACGTGCTAG | 5.45 |
| TTAGGTTTCGGTATCGGGTAGTGCTAG | 10.3 |
| GACGGTCGCGGACTGGGGACGTGCTAG | -0.48 |
| GACTGTTTCGGGACTGGGGACGTGCTA | 1.62 |
| GACGTACTGGGGTATCGAGACGTGCTA | -0.315 |
| TTAGATCTCAGTTTCGATAAGTGCTAG | 3.78 |
| TCACCTCTCCATACTTCACTGTGCTAG | 0.307 |

Set 3 — technique: competition protein-binding microarray; molecule type: double-stranded DNA, one strand shown; medium: in vitro; concentration: 2 µM; together with: Pho4 competitor, 0.05 µM; direction: higher = stronger binding; all sequences stand within: … GTCTTGATTCGCTTGACGCTGCTG
Target: Centromere-binding protein 1, full length, His-tagged (CBF1, Saccharomyces cerevisiae, UniProt P17106, residues 1-351)
Chain of UniProt P17106 (whole entry, looked up): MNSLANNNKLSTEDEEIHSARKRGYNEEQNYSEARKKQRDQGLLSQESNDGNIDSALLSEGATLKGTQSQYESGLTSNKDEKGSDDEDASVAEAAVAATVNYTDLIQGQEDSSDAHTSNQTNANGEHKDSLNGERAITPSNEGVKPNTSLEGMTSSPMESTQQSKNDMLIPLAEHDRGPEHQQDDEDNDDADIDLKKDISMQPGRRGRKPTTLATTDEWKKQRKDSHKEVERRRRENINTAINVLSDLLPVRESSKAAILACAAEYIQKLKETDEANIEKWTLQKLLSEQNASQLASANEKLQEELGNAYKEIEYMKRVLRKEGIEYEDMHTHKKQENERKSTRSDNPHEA
Notes: whole 60-bp probe, lowest competitor level
| Oligonucleotide | fluorescence intensity [a.u.] |
| --- | --- |
| CTGCATGGTACTGCTCATATGACAACTCCCACCCAG | 78.6 |
| GGCGTTTCTGATCTTCATGTGGTCGGAGTGGAATTC | 84.7 |
| CTCTTTGAATGCTGTCACCTGTTACTGTGAAGACCA | 238 |
| CTAACGAAGGTTTGAACCGTGGGTGACAAGCCAAGT | 59.2 |
| TGCGCAACAACTTTTCACGTGGGTTTATGTCTAGAA | 827 |
| CGGGCGTATTGAGCCCTCGTGCTGTCTGGATGCACC | 102 |
| AAAGTATTTTACTGGCACGATGCATCCATGGGACTA | 82.9 |
| TCTTCTTGCGAGGCGCTCGTGGTCGAGCCGTTCGTA | 67.2 |
| AAAGCGGTAATTTGGGGTGTGGGTGCAGATATCTAT | 80.5 |
| TTGTTGATCCTGGTAGGCGTGGCCGTACCGCCATTG | 50.5 |
| AAAAAAATACATAGTAGCATGACAAACTAATAATAA | 103 |
| CCTGACAACAAGAAGAGGATTGCAGAGCTTTTAGAC | 73.8 |
| TTTTCTTGGTCAAGGTCTGTGATATCCCCTTCCGGT | 59.7 |
| TCTGATAGTTCTACCATCGTGGGTAACAACGTATGG | 84.2 |
| AATTTCGGAGAATCTCACATGCCACTGAAGATTAAA | 89.8 |
| TTATTTCCCTTCCCTCGCGTGCCAGTCGGCGATCTC | 59.6 |
| AAGGTGGAACGATTCCACGTGGATTGTCTAAACTGT | 466 |
| CTTCTGTAAATTTGCCTTGTGGGTGGACGCGCCCCG | 84.4 |
| CGGGGTTAAGTTTCACACGTGTTTTGCTTGCAGCAG | 678 |
| AAATTACTAAGTTTTCACGTGTGTTACCCCGTATGA | 609 |
| GATGAGGCCCTTATGTACGTGCAAATATATGTGCGA | 85.8 |

Set 4 — technique: RNA Bind-n-Seq; molecule type: RNA; medium: in vitro; concentration: 365 nM; relative to: no-protein control; direction: higher = stronger binding
Target: RNA binding protein fox-1 homolog 2, RRM domain, GST-SBP tag (RBFOX2, Homo sapiens, UniProt O43251-10, residues 100-194)
Notes: natural RNA segment, single round, ends assumed
All sequences stand within: GGGAGUUCUACAGUCCGACGAUC … UGGAAUUCUCGGGUGCCAA
Construct (chain): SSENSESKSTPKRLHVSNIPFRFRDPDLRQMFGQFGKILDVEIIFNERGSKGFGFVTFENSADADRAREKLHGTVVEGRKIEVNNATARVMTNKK
| Oligonucleotide | RBNS enrichment (R) |
| --- | --- |
| GGAAGAAGCGUGAAACUUUUCCCAGGAGAGCGAGGAGCACAGCGUCUUCGUGCCUGGCUCAUGGUAGAGCACAGUCAUGCACUGACCAAUGGAGGCAGCGUGUACACAUC | 0.323 |
| UAAGAGAGAAAAUUAAGUCUACUGAUUUGGUAUAGGUAAAUGGACAUUAAACUUUUUUAAAGUAAAGGAGAUGGUAGAUACCGUUAGAUUAUAGUCUUGAGGUUCAUGUG | 1.42 |
| AGUGCCAAUCUCUCUAGGACCCUUAUAGCUCCCCACUCCCCCCAAAUCAAGUCCCAUGCUCCAAUCUCACCCCUGUCCAGGAUAGGAGCAAACUCAACCAAGAACUGCUC | 0.559 |
| AAAAACAAAACAAAACAAAAAAAUCCUCCUAGAAACCAGAAGUAGAGAGAUUUCUGCUAAUUCUGGGCUUUGAAGCGUACGUCUUUUGAGGGGGCAUUUUGAUGUGGUCC | 0.405 |
| UAAUUUUAAUUCACAUCACCUGAAAAGUAAAACAACAGGCUUUGCCAAGUGGAUGCUUUUCAGUAACAGUGAAGUGGAGUGAAUACCAAAUGUUUGCCCUGGUGGUUCCU | 0.269 |
| UAAUGCUGGUAGCAGUUGGAUCCAGGCACAACCAGACUUAGUUGCACAACUGUAUGUGACCAAAAGACACAUUUUGUGUCACUCCUGCUUUCCUGUCAGCUGUUGACACC | 0.309 |
| UAAGUAAAACUAAAAGCACAGAAUGGUGGGAAAGGGGCUAUAAUGUGGUUCAUUAAUAAUGUUAGCAGCUUUUUUCUAACCAUCCUGUCUAAUGGUUAAGACACCAGUAA | 0.287 |
| CAAGGCUGCAUUUGAAUGAUUUCCUUAGGAUGAAUGGUCCCUACACAAAGAGGCCUUGUGGGCAAACCUGGAGAACCCUCCUAAAUCCAUAGAGUUUUCAAAAUGUGAAU | 2.2 |
| UAUCAUCUGCUCCAGGAAGCCCCCUAGACUACCUCCUGAGUCUGGACAAAGCCUCCUGAUUCUACCUGGAUCACUCCUGUUAUGUGACAGUUAUGUGGUGGGUCCCUGCU | 0.382 |
| GGACCAAGAGCAAGGCCCAGCUUCUGCUGGCCAAUCGUGUUCCUUCAGAUCACCCACAAUAAAGCGCAGCCCUUGCUGCAGCACCCGCUGCCAUCCUUGUCUCUGCUUCC | 0.231 |
| UAGGUCCUUUUUAAUCUGGGGUAUUACAGGCAGUACUUUAAAUCAGAGUCUUCCUGGCCUUUUUCCCUCCACCUUUUUGUAGUUACUCGGGGGCUUACUUGUGCAGUACU | 0.37 |
| GACUGUUUUUCAGUUGCUAUAUCAUAUUUUAAAAGUUUCUUUUCUAGCUUGACACUGUACUAGCUUCCUGAAUUGUUUGAAAAUACUACUUAAAUAUAAGACAACAGGAA | 0.954 |

Set 5 — technique: universal PBM; molecule type: double-stranded DNA, one strand shown; medium: in vitro; concentration: 600 nM; direction: higher = stronger binding
Target: Sal-like protein 4, full length isoform A (SALL4, Homo sapiens, UniProt Q9UJQ4, residues 1-1053)
Chain of UniProt Q9UJQ4 (whole entry, looked up): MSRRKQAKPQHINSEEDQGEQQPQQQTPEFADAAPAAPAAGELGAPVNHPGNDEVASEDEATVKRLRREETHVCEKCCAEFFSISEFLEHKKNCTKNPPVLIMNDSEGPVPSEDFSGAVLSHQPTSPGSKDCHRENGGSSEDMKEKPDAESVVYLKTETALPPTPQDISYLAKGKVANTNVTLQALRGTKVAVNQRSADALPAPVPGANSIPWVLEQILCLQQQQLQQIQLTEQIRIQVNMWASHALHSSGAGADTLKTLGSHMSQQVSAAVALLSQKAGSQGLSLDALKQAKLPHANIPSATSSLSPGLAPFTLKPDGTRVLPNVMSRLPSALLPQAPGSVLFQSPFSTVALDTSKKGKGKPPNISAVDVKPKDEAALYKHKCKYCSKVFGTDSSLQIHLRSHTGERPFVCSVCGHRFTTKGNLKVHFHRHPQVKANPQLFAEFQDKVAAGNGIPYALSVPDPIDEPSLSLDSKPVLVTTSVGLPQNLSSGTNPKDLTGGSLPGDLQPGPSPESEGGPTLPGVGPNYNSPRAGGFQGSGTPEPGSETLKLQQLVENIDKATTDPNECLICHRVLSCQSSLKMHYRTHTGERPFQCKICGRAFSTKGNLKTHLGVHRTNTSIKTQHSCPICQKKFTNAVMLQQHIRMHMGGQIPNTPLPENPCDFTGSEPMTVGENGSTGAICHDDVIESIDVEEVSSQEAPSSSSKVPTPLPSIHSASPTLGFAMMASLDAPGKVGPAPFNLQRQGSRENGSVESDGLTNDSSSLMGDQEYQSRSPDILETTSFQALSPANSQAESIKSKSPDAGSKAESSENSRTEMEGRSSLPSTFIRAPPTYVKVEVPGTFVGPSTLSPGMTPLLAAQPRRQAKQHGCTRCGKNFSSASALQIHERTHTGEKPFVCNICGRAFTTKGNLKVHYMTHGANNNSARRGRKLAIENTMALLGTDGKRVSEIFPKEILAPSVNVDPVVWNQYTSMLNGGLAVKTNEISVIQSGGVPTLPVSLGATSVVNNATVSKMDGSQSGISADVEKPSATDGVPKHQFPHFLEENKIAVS
Notes: 8-mer, flanks averaged, mean of replicates
| Oligonucleotide | E-score |
| --- | --- |
| ATGCCAAT | 0.121 |
| CGCCAGGA | -0.173 |
| GATATGCA | 0.253 |
| TACTGAGA | -0.0721 |
| CGGAAGAC | -0.152 |
| GCCCGACA | -0.239 |
| GAGAGAGA | -0.0723 |
| GGGACACC | -0.338 |
| TTATAAAA | 0.415 |
| CCCCTTAC | -0.146 |
| GATTACCA | -0.122 |
| GCATCCCC | -0.191 |
| ACTCTACT | 0.156 |
| CAGGCGGA | -0.0785 |
| GATGGGGC | -0.319 |
| ATGTGACA | 0.116 |
| ATGCGATC | -0.00351 |
| AATACCCC | -0.216 |
| AAGGGACA | -0.0532 |
| AGACGGTG | -0.222 |
| AATCTCGG | -0.102 |
| GGGGCAGA | -0.132 |
